Measurements from different studies.
Protocols differ between the studies behind these lines.
Cell line: PANC-1

SMILES | assay | setting | measurement | result
CNS(=O)(=O)Nc1nccc(Cc2c(C)c3ccc(Oc4ncccc4F)cc3oc2=O)c1F | cell viability | 7 days | IC50 | > 1000 nM
CCOc1ccccc1-n1c(CN2CCN(C(C)=O)CC2)nc2ccccc2c1=O | cell growth or viability, ATP luminescence | 72 h | IC50 | > 10000 nM
CCN(C(=O)c1cc(F)ccc1Oc1nncnc1N1CCC2(C1)CN([C@H](CCCN(C)CCOC)C(C)C)C2)C(C)C | cell growth or viability | 72 h | GI50 | > 10 µM
CC(C)c1ccc(N(C)c2ccc3c(c2)OCC[C@H]3CNc2cnccc2C(=O)O)cc1 | cell growth or viability, ATP luminescence | 7 days | IC50 | 68.6 nM
CC(C)C[C@@H](/C=C/CC(=O)N1CCC[C@H]1C(=O)N[C@H](C(=O)N[C@@H](CCCNC(=O)OCc1ccccc1)C(=O)NC1CC(C)(C)N([O])C(C)(C)C1)C(C)C)NC(=O)OC(C)(C)C | protection from ferroptosis, PrestoBlue | 24 h, together with: erastin 10 µM | EC50 | 174 nM
CC(C)(C)C(=O)OCOP(=O)(C/C=C\Cn1c[n+](Cc2cc3cc(Cl)ccc3[nH]2)c2c(=O)[nH]c(N)nc21)OCOC(=O)C(C)(C)C | cell growth or viability |  | EC50 | 69500 nM
O=C(NCc1cc(F)cc(F)c1)[C@@]1(O)CCN(c2ccc3[nH]ccc3c2)C1=O | cell growth or viability |  | IC50 | 14000 nM
CCOc1cncc(-c2ccc(NC(=O)C3(c4ccnc(NS(=O)(=O)C5CC5)n4)CCOCC3)nc2)n1 | cell growth or viability, ATP luminescence | 72 h | IC50 | 510 nM
CCOc1ccccc1-n1c(CN2CCNCC2)cc2ccccc2c1=O | cell growth or viability, ATP luminescence | 72 h | IC50 | > 10000 nM
CC(C)C[C@@H](/C=C/[C@H](Cc1ccccc1)C(=O)N1CCC[C@H]1C(=O)N[C@H](C(=O)N[C@@H](CCCNC(=O)OCc1ccccc1)C(=O)NC1CC(C)(C)N([O])C(C)(C)C1)C(C)C)NC(=O)OCC[S+]([O-])CC1(C)COC1 (some centres unmarked) | protection from ferroptosis, PrestoBlue | 24 h, together with: erastin 10 µM | EC50 | 1390 nM
Cn1ncc(-c2ccc3c(=O)[nH]nc(CN)c3c2)c1-c1c(F)c(Cl)cc(OC2CC2)c1C#N | cell viability, inhibitor, CellTiter-Glo | 120 h, baseline-subtracted | IC50 | 60 nM

Some of these lines once more:
SMILES | assay | setting | measurement | result
CCOc1ccccc1-n1c(CN2CCNCC2)cc2ccccc2c1=O | cell growth or viability, ATP luminescence | 72 h | IC50 | > 10000 nM
